Experimental data from different studies.
Each numbered part is a random draw from the data of one study; scales do not carry over between parts. Changes are numbered by the printed parent chain.
Sequence of UniProt P61077 (whole entry, looked up): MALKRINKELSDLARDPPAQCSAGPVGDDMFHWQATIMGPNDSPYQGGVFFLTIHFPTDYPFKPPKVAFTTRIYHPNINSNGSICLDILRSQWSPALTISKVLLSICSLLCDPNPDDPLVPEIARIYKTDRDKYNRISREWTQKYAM

Series 1
Target: Phosphate system positive regulatory protein PHO4, full length, GST-tagged (PHO4, Saccharomyces cerevisiae, UniProt P07270, residues 1-312)
Method: competition protein-binding microarray
Form: double-stranded DNA, one strand shown
Sample: in vitro
Concentration: 2 µM
Notes: whole 60-bp probe, lowest competitor level
With: Cbf1 competitor, 0.05 µM
Direction: higher = stronger binding
All sequences stand within: … GTCTTGATTCGCTTGACGCTGCTG
Construct (chain): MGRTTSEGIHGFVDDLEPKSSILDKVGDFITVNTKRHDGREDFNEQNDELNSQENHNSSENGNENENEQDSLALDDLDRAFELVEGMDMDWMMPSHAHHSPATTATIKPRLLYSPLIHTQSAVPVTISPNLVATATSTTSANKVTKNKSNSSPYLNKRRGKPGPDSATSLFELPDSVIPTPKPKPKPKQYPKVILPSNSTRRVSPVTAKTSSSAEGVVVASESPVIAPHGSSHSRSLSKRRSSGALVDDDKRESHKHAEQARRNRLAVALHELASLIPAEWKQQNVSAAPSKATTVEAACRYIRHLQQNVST
| Oligonucleotide | fluorescence intensity |
| --- | --- |
| TAGGAACTCCTTTGCTGCGTGGCCGATTCCTCTGTA | 6250 a.u. |
| TTTCTCTCTTCAAGTGACCTGACAGGGCCACAGTGG | 3390 a.u. |
| TAACGTACAGGAAGTAACGATCAAACAAAATAAATT | 3520 a.u. |
| ATTAAACTTTTTAGACACATGACAAAGGCCATCGGC | 7720 a.u. |
| CTTGCATGGGTGGTGCCCGTGGAGGACGCTCCTAGT | 7440 a.u. |
| CTATTTGAAGGCCATCACGATGGTATTTTTCAAGAA | 7800 a.u. |
| TTGTTGGAAAGAACCGTCGTGGGTATAACCAGACAA | 6390 a.u. |
| GCTGGTGTCTCGTCGCACATGCTATTGTGTGTCATC | 10800 a.u. |

Series 2
Target: Histone acetyltransferase KAT6A, winged helix 1, GST fusion (KAT6A, Homo sapiens, UniProt Q92794, residues 1-85)
Method: protein binding microarray
Form: double-stranded DNA, one strand shown
Sample: in vitro
Concentration: not given
Notes: 8-mer, flanks averaged, mean of 2 arrays, mostly near background
Relative to: not given
Direction: higher = stronger binding
Residues (chain): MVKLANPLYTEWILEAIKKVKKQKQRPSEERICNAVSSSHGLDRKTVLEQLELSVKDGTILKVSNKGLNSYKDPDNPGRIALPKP
| Oligonucleotide | E-score |
| --- | --- |
| CACCCGAC | 0.238 |
| CTAACAGC | -0.0276 |
| CTCTAGGC | 0.159 |
| CACTTCGA | -0.197 |
| ACTAAGTC | -0.0801 |
| CGCTCTAG | 0.216 |
| ACCCCCTG | -0.0251 |
| CGCTGATA | 0.201 |

Further values, each from its own experiment
Sample: yeast
Relative to: not given
P1: viral docking peptide; YKVKRRLVFGADD; partner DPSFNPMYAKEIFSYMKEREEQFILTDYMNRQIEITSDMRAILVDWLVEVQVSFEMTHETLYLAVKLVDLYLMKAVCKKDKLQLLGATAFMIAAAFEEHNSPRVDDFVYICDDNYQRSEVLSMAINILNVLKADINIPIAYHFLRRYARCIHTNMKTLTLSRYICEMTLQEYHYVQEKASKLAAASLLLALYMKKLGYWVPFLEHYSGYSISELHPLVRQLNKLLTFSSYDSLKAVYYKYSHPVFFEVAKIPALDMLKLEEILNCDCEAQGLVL
| Substance | target | assay | conditions | how to read | endpoint | value |
| --- | --- | --- | --- | --- | --- | --- |
| P1 V3N | CCNB3, cyclin fold, Cln2 fusion (human) | yeast growth competition, sequencing | strong parent motif | higher = stronger binding | normalised enrichment score | 0.28 |
| EDEVSDNSAECVVCLSDVRDTLILPCRHLCLCNTCADTLRYQANNCPICRLPFRALLQIR (RNF157 RING domain (UniProt Q96PX1)) | UBE2D3 UBC core domain (UniProt P61077) | yeast two-hybrid | mostly zero background | higher = stronger interaction | lacZ reporter activity | 0 |

Excerpt of the above (series 1):
| Oligonucleotide | fluorescence intensity |
| --- | --- |
| CTTGCATGGGTGGTGCCCGTGGAGGACGCTCCTAGT | 7440 a.u. |
| TTGTTGGAAAGAACCGTCGTGGGTATAACCAGACAA | 6390 a.u. |
